# Measured values pooled from the literature.
# Each line is one published result; not all experiments were run side by side. “And” joins repeats or separate records; there may be more than shown. ± marks the error that the study gave.
# ESR1: Estrogen receptor (ESR1, Homo sapiens, UniProt P03372)
# Chain of UniProt P03372 (whole entry, looked up): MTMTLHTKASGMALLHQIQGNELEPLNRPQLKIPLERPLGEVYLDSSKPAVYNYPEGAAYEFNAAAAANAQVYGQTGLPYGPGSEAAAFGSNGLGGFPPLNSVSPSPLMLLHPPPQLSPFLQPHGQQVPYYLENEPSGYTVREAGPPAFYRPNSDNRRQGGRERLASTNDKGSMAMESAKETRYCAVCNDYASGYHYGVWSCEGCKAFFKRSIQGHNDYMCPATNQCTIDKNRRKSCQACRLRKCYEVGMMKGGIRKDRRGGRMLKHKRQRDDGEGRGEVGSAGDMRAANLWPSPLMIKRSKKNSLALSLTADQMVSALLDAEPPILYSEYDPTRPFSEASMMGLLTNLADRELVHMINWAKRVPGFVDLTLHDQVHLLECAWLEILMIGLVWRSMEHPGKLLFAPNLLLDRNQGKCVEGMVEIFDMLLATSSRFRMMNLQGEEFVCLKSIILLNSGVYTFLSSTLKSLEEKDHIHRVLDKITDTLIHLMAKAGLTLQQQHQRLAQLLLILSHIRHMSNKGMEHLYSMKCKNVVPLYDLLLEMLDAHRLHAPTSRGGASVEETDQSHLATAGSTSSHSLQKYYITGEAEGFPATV
# Genome polyprotein NS3 helicase domain: Genome polyprotein, NS3 helicase domain (Hepatitis C virus genotype 1b, UniProt Q9WMX2)
# WD repeat-containing protein 91 WD40 domain, residues 392–747: WD repeat-containing protein 91, WD40 domain, residues 392–747 (Homo sapiens, UniProt A4D1P6)
# Chain of UniProt A4D1P6 (whole entry, looked up): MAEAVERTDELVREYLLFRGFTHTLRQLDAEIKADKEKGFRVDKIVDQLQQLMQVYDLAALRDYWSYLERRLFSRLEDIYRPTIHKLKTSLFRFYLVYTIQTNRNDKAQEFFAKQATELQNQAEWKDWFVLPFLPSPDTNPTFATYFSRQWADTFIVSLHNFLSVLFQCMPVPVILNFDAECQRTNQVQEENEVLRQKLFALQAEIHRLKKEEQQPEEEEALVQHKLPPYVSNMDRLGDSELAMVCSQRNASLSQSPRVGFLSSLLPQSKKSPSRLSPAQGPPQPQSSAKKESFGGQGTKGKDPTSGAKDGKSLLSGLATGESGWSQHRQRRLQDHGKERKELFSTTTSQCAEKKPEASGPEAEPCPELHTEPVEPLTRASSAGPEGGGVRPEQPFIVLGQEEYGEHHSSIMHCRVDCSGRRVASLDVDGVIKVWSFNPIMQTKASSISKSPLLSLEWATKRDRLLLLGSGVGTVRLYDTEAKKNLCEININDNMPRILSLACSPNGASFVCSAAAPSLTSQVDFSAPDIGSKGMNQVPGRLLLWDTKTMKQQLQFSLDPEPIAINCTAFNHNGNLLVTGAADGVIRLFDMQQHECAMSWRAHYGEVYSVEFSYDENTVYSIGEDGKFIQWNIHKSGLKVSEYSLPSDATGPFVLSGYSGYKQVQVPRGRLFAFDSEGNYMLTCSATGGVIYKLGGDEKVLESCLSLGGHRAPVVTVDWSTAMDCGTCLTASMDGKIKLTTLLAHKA
# Glutamate receptor 2: Glutamate receptor 2 (Homo sapiens, UniProt P42262)
# Chain of UniProt P42262 (whole entry, looked up): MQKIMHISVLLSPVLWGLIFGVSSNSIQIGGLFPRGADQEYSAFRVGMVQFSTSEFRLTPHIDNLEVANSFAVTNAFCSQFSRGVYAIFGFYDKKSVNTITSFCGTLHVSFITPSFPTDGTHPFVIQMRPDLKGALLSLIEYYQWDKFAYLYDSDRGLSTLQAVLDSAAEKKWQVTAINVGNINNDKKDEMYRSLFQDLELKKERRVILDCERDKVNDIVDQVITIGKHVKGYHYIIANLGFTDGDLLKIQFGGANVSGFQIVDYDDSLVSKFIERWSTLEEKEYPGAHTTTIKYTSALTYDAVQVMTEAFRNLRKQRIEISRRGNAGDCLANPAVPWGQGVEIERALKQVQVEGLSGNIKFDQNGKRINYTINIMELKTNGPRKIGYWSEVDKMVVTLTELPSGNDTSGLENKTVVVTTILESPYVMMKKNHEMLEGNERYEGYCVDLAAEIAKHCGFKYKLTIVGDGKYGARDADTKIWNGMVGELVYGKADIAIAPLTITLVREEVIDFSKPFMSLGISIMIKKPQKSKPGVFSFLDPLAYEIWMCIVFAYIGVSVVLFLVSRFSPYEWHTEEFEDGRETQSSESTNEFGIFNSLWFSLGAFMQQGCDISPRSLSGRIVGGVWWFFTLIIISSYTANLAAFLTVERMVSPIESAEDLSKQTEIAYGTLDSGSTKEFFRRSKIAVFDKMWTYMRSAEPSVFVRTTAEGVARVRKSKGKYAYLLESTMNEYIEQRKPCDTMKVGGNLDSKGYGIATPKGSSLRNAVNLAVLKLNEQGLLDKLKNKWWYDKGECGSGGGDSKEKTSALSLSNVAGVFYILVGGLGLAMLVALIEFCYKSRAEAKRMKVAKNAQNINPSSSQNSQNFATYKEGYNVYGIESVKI
# WD repeat-containing protein 91: WD repeat-containing protein 91 (Homo sapiens, UniProt A4D1P6)
# Chain of UniProt Q14683 (whole entry, looked up): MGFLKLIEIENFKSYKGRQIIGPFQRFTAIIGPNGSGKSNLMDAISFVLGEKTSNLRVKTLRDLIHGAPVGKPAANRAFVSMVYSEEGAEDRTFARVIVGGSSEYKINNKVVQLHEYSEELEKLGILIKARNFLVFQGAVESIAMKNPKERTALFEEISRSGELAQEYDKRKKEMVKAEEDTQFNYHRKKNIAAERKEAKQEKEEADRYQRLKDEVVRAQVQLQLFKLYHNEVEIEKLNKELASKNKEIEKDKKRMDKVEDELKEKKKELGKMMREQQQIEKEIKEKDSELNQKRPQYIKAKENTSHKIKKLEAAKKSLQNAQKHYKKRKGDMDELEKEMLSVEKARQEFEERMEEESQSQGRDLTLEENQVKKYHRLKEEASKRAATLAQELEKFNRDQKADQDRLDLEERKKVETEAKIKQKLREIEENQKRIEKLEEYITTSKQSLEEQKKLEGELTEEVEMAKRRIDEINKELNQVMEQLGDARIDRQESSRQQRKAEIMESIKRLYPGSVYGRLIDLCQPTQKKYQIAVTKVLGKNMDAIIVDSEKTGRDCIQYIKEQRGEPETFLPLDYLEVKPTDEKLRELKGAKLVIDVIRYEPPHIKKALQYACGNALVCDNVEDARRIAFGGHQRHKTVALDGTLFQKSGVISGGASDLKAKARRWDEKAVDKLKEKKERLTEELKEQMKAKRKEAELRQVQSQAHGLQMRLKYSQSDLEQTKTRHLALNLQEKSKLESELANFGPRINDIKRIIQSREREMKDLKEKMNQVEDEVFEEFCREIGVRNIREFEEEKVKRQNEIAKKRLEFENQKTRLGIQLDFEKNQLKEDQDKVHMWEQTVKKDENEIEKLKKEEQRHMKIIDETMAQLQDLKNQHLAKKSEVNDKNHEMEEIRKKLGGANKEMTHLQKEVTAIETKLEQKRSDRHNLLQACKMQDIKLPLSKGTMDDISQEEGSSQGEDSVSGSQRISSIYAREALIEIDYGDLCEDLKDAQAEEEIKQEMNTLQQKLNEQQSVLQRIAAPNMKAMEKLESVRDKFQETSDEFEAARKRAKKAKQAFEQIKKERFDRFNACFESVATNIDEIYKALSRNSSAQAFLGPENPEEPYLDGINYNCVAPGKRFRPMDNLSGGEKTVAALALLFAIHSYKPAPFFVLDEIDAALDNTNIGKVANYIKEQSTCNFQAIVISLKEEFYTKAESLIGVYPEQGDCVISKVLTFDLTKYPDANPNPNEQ
# Chain of UniProt P51575 (whole entry, unmodified, looked up): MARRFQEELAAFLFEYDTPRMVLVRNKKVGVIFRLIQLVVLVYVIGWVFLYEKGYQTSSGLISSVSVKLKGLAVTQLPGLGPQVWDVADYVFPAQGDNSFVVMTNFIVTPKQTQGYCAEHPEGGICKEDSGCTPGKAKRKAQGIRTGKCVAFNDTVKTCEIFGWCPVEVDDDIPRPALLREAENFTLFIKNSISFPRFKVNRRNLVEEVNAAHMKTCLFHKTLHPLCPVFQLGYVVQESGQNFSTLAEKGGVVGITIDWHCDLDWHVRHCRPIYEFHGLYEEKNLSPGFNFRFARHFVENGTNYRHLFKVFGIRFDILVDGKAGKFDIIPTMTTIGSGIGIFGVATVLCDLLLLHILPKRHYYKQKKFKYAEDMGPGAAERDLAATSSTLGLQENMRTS
# Chain of UniProt O76090 (whole entry, looked up): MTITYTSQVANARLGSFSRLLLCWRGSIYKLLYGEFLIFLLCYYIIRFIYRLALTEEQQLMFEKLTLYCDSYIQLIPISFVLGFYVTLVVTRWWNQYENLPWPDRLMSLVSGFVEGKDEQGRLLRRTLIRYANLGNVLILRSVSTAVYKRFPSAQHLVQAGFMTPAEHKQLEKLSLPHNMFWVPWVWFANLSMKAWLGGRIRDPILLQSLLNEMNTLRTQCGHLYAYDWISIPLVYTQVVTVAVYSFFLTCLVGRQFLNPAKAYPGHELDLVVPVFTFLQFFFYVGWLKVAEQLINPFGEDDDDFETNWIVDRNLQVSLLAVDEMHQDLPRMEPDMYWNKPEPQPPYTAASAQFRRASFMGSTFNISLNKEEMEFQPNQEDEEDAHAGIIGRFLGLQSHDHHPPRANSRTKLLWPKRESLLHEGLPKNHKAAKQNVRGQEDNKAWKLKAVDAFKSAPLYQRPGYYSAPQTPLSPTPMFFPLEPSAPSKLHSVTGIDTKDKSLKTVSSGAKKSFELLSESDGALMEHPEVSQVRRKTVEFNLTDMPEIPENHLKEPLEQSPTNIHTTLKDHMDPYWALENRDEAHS
# Chain of UniProt P02749 (whole entry, unmodified, looked up): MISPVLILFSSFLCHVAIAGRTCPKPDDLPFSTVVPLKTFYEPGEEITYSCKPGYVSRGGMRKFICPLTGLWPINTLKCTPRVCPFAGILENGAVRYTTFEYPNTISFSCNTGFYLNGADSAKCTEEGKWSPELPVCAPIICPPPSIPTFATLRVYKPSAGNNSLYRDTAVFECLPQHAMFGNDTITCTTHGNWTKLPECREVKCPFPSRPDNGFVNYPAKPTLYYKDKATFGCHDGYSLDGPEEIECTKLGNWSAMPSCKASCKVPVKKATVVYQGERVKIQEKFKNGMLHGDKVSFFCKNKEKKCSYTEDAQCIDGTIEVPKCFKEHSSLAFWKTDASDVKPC
# Chain of UniProt P00441 (whole entry, unmodified, looked up): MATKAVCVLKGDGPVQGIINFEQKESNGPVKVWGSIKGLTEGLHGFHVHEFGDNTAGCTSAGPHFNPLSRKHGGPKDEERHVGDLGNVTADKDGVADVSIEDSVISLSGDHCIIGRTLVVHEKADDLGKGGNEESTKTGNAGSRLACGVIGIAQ
SMILES,target,test,test system,setting,scale,measurement,result
C[S+](CC[C@H](N)C(=O)O)C[C@H]1O[C@@H](n2cnc3c(N)ncnc32)[C@H](O)[C@@H]1O (stereo partly drawn),PolH (Streptomyces cacaoi),substrate,,"pH 7.6, 25 °C, anaerobic, with: EP-UMP 250 µM",,Km,15 ± 3 µM
Oc1ccc2c(c1)OC[C@]1(O)Cc3cc(O)c(O)cc3[C@H]21,ESR1,array formation,PRL-HeLa,,relative to: EC50 ERβ over EC50 ERα,selectivity ratio,44.3
[O-][S+]1CCCCS1 (stereo not drawn),"Superoxide dismutase [Cu-Zn] (SOD1, Homo sapiens, UniProt P00441, G94A)",measured: SOD1 dimer,"SOD1 G93A transgenic mice, brain","iv, 10 mg/kg once daily",,target engagement,64%
NC(=O)c1cnccn1,Genome polyprotein NS3 helicase domain,"DNA binding, inhibitor",hepatitis C virus,"100 µM, with: Cy5-dT15 DNA",,inhibition,1%
COC(=O)CCc1c(C)nn(-c2ccc(C(=O)N3CCC(C#N)CC3)cc2)c1C,"WD repeat-containing protein 91 WD40 domain, residues 392–747","binding, SPR single-concentration screen",,45 µM,,SPR response,-6.5 RU and 0.3 RU
N#Cc1ccc2[nH]cc(CCCCN3CCN(c4ccc5oc(C(N)=O)cc5c4)CC3)c2c1,"Sodium-dependent serotonin transporter (SLC6A4, Homo sapiens, UniProt P31645, Y95F)","[3H]5-HT uptake, inhibitor",COS-7,,,Hill coefficient,1.31 ± 0.15
Cc1ncc(CO)c(CN)c1O,"N-alpha-acetyltransferase 80 (NAA80, Homo sapiens, UniProt Q93015)","substrate, DTNB",,"2 mM, 30 min, 37 °C, with: acetyl-CoA 500 µM",,product formation,1.58 µM
COc1cc(/C=C(\C#N)C(=O)c2ccc(O)c(O)c2)cc(I)c1O,Genome polyprotein NS3 helicase domain,"DNA binding, inhibitor",hepatitis C virus,"100 µM, with: Cy5-dT15 DNA",,inhibition,37%
O=c1nc(SCc2cc(F)cc(C(F)(F)F)c2)nc(SCc2ccc3sccc3c2)[nH]1,"DNA topoisomerase 2-alpha (TOP2A, Homo sapiens, UniProt P11388)",decatenation,,"15.6 µM, replicate 2",,decatenated DNA,0.17%
CC[C@H](C)[C@H](NC(=O)[C@H](CCCCN)NC(=O)CNC(=O)[C@@H](NC(=O)[C@@H](NC(=O)[C@H](CCSC)NC(=O)[C@H](Cc1c[nH]cn1)NC(=O)CN)[C@@H](C)O)C(C)C)C(=O)N[C@@H](Cc1ccc(O)cc1)C(=O)N[C@@H](C)C(=O)N[C@@H](C)C(=O)N[C@@H](C)C(=O)N[C@@H](CCSC)C(=O)N[C@H](C(=O)N[C@@H](CCSC)C(=O)N[C@@H](CCC(=O)O)C(=O)N[C@@H](Cc1ccc(O)cc1)C(=O)N[C@@H](Cc1ccc(O)cc1)C(=O)N[C@@H](CCCNC(=N)N)C(=O)N[C@@H](CCC(N)=O)C(=O)N[C@@H](CO)C(=O)N[C@@H](CCCCN)C(=O)N[C@@H](C)C(=O)N[C@@H](CCCCN)C(=O)N[C@@H](CCCCN)C(=O)N[C@@H](CC(C)C)C(=O)N[C@@H](CCC(N)=O)C(=O)N[C@@H](C)C(=O)N[C@@H](CCSC)C(=O)N[C@@H](CCCNC(=N)N)C(=O)O)[C@@H](C)CC,"Calmodulin-1, Ca2+-bound N-lobe (CALM1, Homo sapiens, UniProt P0DP23)","binding, isothermal titration calorimetry",,"pH 7.4, 15 °C, N-lobe, CaV2.1 IQ domain, with: Ca2+",,ΔH,-4.63 ± 0.14 kcal/mol
CCCN1C[C@H](CSC)C[C@@H]2c3cccc4[nH]cc(c34)C[C@H]21,Glutamate receptor 2,"ion current, agonist, SyncroPatch patch clamp",HEK293,3 µM,,activation,3%
O=C(NC1CCN(c2ncnc3c2nc(-c2ccccc2Cl)n3-c2ccc(Cl)cc2)CC1)c1ccccc1F,"Cannabinoid receptor 1 (CNR1, Homo sapiens, UniProt P21554)","antagonist, FLIPR calcium mobilisation",CHO-K1 expressing CNR1 and Gαq16,with: CP55940,,Ke,~0.6 nM
O=C(COP(=O)(O)O)[C@@H](O)[C@H](O)[C@H](O)COP(=O)(O)O,"Structural maintenance of chromosomes protein 1A (Homo sapiens, UniProt Q14683)","thermal proteome profiling, measured: SMC1A",HepG2 cell lysate,"concentration not given, 57 over 37 °C",relative to: compound over control,thermal stability ratio,0.444 and 0.667 and 0.786
N#CC1CCN(C(=O)c2ccc(S(=O)(=O)N3CCCc4ccccc43)cc2)CC1,"WD repeat-containing protein 91 WD40 domain, residues 392–747",SPR,,45 µM,,binding,8% and 1%
O=c1cc(-c2ccc(O)c(O)c2)oc2cc(O)cc(O)c12,ESR1,array formation,PRL-HeLa,,relative to: EC50 ERβ over EC50 ERα,selectivity ratio,0.791
CO[C@H]1O[C@H](COS(=O)(=O)O)[C@@H](O[C@@H]2O[C@@H](C(=O)O)[C@@H](O[C@H]3O[C@H](COS(=O)(=O)O)[C@@H](O[C@@H]4O[C@H](C(=O)O)[C@@H](O[C@H]5O[C@H](COS(=O)(=O)O)[C@@H](O)[C@H](O)[C@H]5NS(=O)(=O)O)[C@H](O)[C@H]4O)[C@H](OS(=O)(=O)O)[C@H]3NS(=O)(=O)O)[C@H](O)[C@H]2OS(=O)(=O)O)[C@H](O)[C@H]1NS(=O)(=O)O,"Beta-2-glycoprotein 1, domain V (APOH, Homo sapiens, UniProt P02749, V266L)",isothermal titration calorimetry,,"298 K, with: 50 mM NaCl",,association constant,226000 ± 18600 M⁻¹
Cc1cccc(N2CC(C(=O)O)CC2=O)c1 (stereo not drawn),WD repeat-containing protein 91,"binding, affinity selection mass spectrometry",,,relative to: other proteins in batch,log fold enrichment,-0.0396
CC(C)[C@H](NC(=O)c1cc(-c2cnn3cc(-c4ccc(OCCN5CCCCC5)cc4)cnc23)cs1)C(F)(F)F,"Serine/threonine-protein kinase WNK1 (WNK1, Homo sapiens, UniProt Q9H4A3)",radiometric kinase,,15 nM,relative to: WNK1 over ULK1,relative inhibition,0.0455
CCC1(O)CCCN(C(=O)c2ccc(-c3ccc(F)c(NC(=O)CCl)c3)cc2)C1 (stereo not drawn),"DNA dC->dU-editing enzyme APOBEC-3B, C-terminal domain (Homo sapiens, UniProt Q9UH17)","covalent modifier, intact protein mass spectrometry, measured: adduct +26487 Da",,"250 µM, 3 h, 10-fold molar excess",,protein adduct,0%
Nc1ncnc2c1ncn2[C@@H]1O[C@H](COP(=O)(O)CP(=O)(O)OP(=O)(O)O)[C@@H](O)[C@H]1O,"P2X purinoceptor 1 (P2RX1, Homo sapiens, UniProt P51575, D170A)",calcium influx,,100 µM,relative to: ionomycin response,calcium influx,91.8% and 99.1% and 92.7%
O=C(O)[C@@H](O)[C@@H](O)[C@H](O)[C@H](O)CO,"Uncharacterized protein (Chromohalobacter israelensis, UniProt Q1QT90)","binder, thermal shift",,,,delta Tm,7.1 °C
Cc1ccc(CN(C(=O)c2cc3cccn3cn2)C2CCc3ccccc32)cc1 (stereo not drawn),"WD repeat-containing protein 91 WD40 domain, residues 392–747","binding, SPR single-concentration screen",,45 µM,,SPR response,37.8 RU and 16.9 RU
Nc1ccc(C(=O)O)cc1,"BEST1 (Homo sapiens, UniProt O76090)",whole-cell patch clamp,HEK293 transiently expressing channel,"concentration not given, membrane potential 40 mV",,current density,39.9 pA/pF and 25.2 pA/pF and 28.8 pA/pF and 49.6 pA/pF and 52 pA/pF and 23.5 pA/pF and 42.9 pA/pF
N[C@@H](Cc1c[nH]c2ccccc12)C(=O)O,Genome polyprotein NS3 helicase domain,"DNA binding, inhibitor",hepatitis C virus,"100 µM, with: Cy5-dT15 DNA",,inhibition,2%
NCCCC(=O)O,"Sodium- and chloride-dependent taurine transporter (SLC6A6, Homo sapiens, UniProt P31641, L306A)","binding, microscale thermophoresis",,"7.81 µM, room temperature, with: 50 nM labelled protein",higher = more binding,normalised MST signal,0.106
CC(C)(O)c1ccc(-c2nc3cc(NC(=O)c4ccc(-c5ccccc5)nc4)ccc3c(=O)[nH]2)cc1,"Poly [ADP-ribose] polymerase tankyrase-2 (TNKS2, Homo sapiens, UniProt Q9H2K2)","PARylation, inhibitor, biochemical PARylation",,,relative to: TNKS1 IC50 over TNKS2 IC50,selectivity ratio,49.6
N#CC1CCN(C(=O)c2ccc(SCc3cn4ccccc4n3)cc2)CC1,"WD repeat-containing protein 91 WD40 domain, residues 392–747",SPR,,45 µM,,binding,-17% and -2%
CC(=O)N[C@H](C(=O)N[C@@H](CC(N)=O)C(=O)N[C@@H](CCCCN)C(=O)N[C@@H](C)C(=O)N[C@@H](CC(C)C)C(=O)N1CCC[C@H]1C(=O)N[C@@H](C)C(=O)N[C@@H](CC(C)C)C(=O)N1CCC[C@H]1C(=O)N[C@H](C(=O)N[C@@H](C)C(N)=O)C(C)C)C(C)C,"Tyrosine-protein kinase Fyn, SH3 domain (FYN, Homo sapiens, UniProt P06241)","binding, isothermal titration calorimetry","50 mM sodium phosphate, 100 mM NaCl","concentration not given, pH 7.0, 25 °C",,enthalpy change,-10 ± 0.454 kcal/mol
CN1C(=O)C(c2c(-c3ccc(Cl)cc3)[nH]c3c2c(=O)[nH]c(=O)n3C)c2ccccc21 (stereo not drawn),WD repeat-containing protein 91,"binding, SPR steady state",,15 µM,,SPR response,27.5 RU
CC[C@H](C)[C@H](NC(=O)[C@H](CCCCN)NC(=O)CNC(=O)[C@@H](NC(=O)[C@@H](NC(=O)[C@H](CCSC)NC(=O)[C@H](Cc1c[nH]cn1)NC(=O)CN)[C@@H](C)O)C(C)C)C(=O)N[C@@H](Cc1ccc(O)cc1)C(=O)N[C@@H](C)C(=O)N[C@@H](C)C(=O)N[C@@H](CCSC)C(=O)N[C@@H](CCSC)C(=O)N[C@H](C(=O)N[C@@H](CCSC)C(=O)N[C@@H](CCC(=O)O)C(=O)N[C@@H](Cc1ccc(O)cc1)C(=O)N[C@@H](C)C(=O)N[C@@H](CCCNC(=N)N)C(=O)N[C@@H](CCC(N)=O)C(=O)N[C@@H](CO)C(=O)N[C@@H](CCCCN)C(=O)N[C@@H](C)C(=O)N[C@@H](CCCCN)C(=O)N[C@@H](CCCCN)C(=O)N[C@@H](CC(C)C)C(=O)N[C@@H](CCC(N)=O)C(=O)N[C@@H](C)C(=O)N[C@@H](CCSC)C(=O)N[C@@H](CCCNC(=N)N)C(=O)O)[C@@H](C)CC,"Calmodulin-1, Ca2+-bound C-lobe (CALM1, Homo sapiens, UniProt P0DP23)","binding, isothermal titration calorimetry",,"pH 7.4, 15 °C, C-lobe, CaV2.1 IQ domain, with: Ca2+",,ΔS,25.4 ± 3.7 cal/mol/K
COc1cc(O)ccc1/C=C/C(=O)c1ccc(O)cc1,ESR1,array formation,PRL-HeLa,,relative to: EC50 ERβ over EC50 ERα,selectivity ratio,2.5
CC12CC3CC(C)(C1)CC(N)(C3)C2,Glutamate receptor 2,"ion current, agonist, SyncroPatch patch clamp",HEK293,3 µM,,activation,5%
COc1cc(/C=C2\CCC/C(=C\c3ccc(O)c(OC)c3)C2=O)ccc1O,haemin,"binding, isothermal titration calorimetry",,"pH 7.4, 37 °C",,ΔS,-199.1 ± 1.83 J/(mol·K)

# Repeated from above:
SMILES,target,test,test system,setting,scale,measurement,result
CC12CC3CC(C)(C1)CC(N)(C3)C2,Glutamate receptor 2,"ion current, agonist, SyncroPatch patch clamp",HEK293,3 µM,,activation,5%
CCCN1C[C@H](CSC)C[C@@H]2c3cccc4[nH]cc(c34)C[C@H]21,Glutamate receptor 2,"ion current, agonist, SyncroPatch patch clamp",HEK293,3 µM,,activation,3%
Cc1ccc(CN(C(=O)c2cc3cccn3cn2)C2CCc3ccccc32)cc1 (stereo not drawn),"WD repeat-containing protein 91 WD40 domain, residues 392–747","binding, SPR single-concentration screen",,45 µM,,SPR response,37.8 RU and 16.9 RU
N#CC1CCN(C(=O)c2ccc(SCc3cn4ccccc4n3)cc2)CC1,"WD repeat-containing protein 91 WD40 domain, residues 392–747",SPR,,45 µM,,binding,-17% and -2%
